Measured values from different studies.
Each line is one published result; not all experiments were run side by side.
CA9: Carbonic anhydrase 9 (CA9, Homo sapiens, UniProt Q16790)
Sequence of UniProt P07949 (whole entry, unmodified, looked up): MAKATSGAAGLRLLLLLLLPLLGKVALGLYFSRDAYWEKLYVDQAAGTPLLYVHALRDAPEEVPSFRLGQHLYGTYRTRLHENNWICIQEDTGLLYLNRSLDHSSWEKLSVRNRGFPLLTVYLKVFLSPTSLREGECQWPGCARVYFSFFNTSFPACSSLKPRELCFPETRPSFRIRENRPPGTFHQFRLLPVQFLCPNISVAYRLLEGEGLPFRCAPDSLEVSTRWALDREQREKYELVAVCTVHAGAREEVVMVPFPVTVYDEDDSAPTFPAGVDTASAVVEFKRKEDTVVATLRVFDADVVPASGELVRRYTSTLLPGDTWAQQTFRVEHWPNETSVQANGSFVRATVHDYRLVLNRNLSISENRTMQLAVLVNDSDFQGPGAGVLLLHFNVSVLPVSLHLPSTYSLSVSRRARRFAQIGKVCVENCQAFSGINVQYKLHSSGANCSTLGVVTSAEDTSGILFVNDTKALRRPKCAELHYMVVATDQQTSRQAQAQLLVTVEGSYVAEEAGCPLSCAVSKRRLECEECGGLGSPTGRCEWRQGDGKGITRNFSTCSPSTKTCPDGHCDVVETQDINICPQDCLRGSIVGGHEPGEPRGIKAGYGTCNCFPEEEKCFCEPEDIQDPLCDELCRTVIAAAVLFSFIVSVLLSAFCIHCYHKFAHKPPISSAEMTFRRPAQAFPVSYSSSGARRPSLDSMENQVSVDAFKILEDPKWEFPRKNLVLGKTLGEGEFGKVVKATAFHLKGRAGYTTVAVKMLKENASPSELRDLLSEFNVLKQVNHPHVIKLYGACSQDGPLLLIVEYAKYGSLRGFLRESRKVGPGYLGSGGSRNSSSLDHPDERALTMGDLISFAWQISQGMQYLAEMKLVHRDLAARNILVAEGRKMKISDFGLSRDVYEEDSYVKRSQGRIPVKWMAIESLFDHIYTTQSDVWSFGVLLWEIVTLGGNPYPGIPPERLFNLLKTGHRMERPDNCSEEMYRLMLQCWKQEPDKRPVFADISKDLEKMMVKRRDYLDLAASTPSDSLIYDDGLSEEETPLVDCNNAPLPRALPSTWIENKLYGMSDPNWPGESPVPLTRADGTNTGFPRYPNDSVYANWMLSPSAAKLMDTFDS
Sequence of UniProt P33981 (whole entry, looked up): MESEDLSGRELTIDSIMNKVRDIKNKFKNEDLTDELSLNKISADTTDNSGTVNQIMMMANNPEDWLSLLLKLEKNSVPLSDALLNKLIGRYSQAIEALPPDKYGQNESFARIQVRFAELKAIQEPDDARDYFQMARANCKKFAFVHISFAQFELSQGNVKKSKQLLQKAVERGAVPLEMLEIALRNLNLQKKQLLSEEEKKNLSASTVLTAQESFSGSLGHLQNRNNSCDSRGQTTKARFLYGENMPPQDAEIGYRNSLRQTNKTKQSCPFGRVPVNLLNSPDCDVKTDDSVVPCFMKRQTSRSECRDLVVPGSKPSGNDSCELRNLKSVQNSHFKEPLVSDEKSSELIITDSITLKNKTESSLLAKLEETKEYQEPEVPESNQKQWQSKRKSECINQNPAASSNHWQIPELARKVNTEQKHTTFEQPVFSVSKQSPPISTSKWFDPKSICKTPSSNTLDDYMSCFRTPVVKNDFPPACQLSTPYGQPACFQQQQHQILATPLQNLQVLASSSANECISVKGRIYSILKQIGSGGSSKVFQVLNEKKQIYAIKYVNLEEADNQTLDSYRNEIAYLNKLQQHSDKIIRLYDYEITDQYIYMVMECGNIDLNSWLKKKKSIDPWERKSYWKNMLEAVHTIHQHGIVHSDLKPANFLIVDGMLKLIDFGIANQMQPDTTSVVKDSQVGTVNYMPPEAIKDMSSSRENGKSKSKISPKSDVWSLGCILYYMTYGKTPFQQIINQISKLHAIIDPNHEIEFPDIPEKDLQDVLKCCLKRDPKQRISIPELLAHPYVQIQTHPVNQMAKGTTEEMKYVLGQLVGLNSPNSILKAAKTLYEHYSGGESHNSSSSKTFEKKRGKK
Sequence of UniProt O00418 (whole entry, looked up): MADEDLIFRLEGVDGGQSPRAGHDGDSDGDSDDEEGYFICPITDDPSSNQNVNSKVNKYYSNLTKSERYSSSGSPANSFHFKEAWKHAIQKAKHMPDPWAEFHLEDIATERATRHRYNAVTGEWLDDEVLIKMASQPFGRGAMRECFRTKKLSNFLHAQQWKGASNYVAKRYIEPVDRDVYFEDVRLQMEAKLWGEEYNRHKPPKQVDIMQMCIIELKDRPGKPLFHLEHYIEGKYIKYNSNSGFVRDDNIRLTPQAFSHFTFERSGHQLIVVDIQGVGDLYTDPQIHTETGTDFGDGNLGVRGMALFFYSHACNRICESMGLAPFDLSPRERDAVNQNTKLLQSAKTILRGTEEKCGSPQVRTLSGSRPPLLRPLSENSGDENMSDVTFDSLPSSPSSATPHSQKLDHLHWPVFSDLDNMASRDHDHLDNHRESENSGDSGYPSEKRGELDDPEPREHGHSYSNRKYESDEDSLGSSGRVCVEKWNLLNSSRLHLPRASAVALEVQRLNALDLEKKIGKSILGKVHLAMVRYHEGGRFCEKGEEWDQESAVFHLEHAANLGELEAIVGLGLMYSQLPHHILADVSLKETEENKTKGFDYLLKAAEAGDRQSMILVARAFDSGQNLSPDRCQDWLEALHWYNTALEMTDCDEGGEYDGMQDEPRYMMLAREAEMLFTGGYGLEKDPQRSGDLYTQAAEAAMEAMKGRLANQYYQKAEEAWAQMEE

Structure (SMILES) | tested on | effect on | mode | method | concentration | endpoint | value
Cc1cccc(N(O)N=Nc2ccc(S(=O)(=O)Nc3onc(C)c3C)cc2)c1 |  | DPPH scavenging |  | absorbance | 20 µg/mL | inhibition | 14.6%
[2H]c1c([2H])c([C@]2([2H])CCCN2C(=O)C(C)(C)Oc2ccc3cn[nH]c3c2)c([2H])c([2H])c1C([2H])([2H])[2H] | TTK (Homo sapiens, UniProt P33981) | binding |  | competition with immobilised ligand | 1 µM | remaining binding | 100%
COc1cc(-c2cncc3c2CN(C)Cc2cc(N4CCNCC4)ccc2-3)cc(OC)c1OC | RET (Homo sapiens, UniProt P07949, V804L) | enzyme activity | inhibitor |  | 1 µM | remaining activity | 108%
Cc1cc(NS(=O)(=O)c2ccc(N=NN(O)c3ccccc3)cc2)no1 |  | DPPH scavenging |  | absorbance | 60 µg/mL | inhibition | 24.4%
CC(=O)Nc1ccc(-n2nc(C(=O)Nc3ccc(S(N)(=O)=O)cc3)cc2-c2ccco2)cc1 | CA9 | enzyme activity | inhibitor |  |  | IC50 | 60.3 nM
CNc1ncc2c(/C=C/C(=O)N3CCC(OC)CC3)nn(Cc3cccc(C(F)(F)F)c3)c2n1 | EEF2K (Homo sapiens, UniProt O00418) | enzyme activity | inhibitor | radiometric | 1 µM | remaining activity | 94%
CC(c1cccc(-c2ccc(-c3cn(C)nn3)cc2)c1)N(C)C(=O)c1cc(S(N)(=O)=O)ccc1O (centres unmarked) | CA9 | enzyme activity | inhibitor |  |  | IC50 | 21.9 nM
CCCCC(=O)Nc1ccc(-c2ccc3ncn(CCC)c(=O)c3c2)cn1 | RET (Homo sapiens, UniProt P07949, V804M) | binding |  | competition with immobilised ligand | 0.5 µM | remaining binding | 100%
